Assay results gathered from unrelated publications.
Compare with care: the assays were run in different laboratories. Numbers after ± are the reported error.
CD38: ADP-ribosyl cyclase/cyclic ADP-ribose hydrolase 1 (CD38, Homo sapiens, UniProt P28907)
T1: RNA aptamer A50U; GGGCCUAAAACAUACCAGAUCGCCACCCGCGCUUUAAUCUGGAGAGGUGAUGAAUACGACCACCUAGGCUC

SMILES | target | test | system | conditions | scale | endpoint | result
Cc1cc(O)cc2c1C(=O)c1c(cc3oc(=O)cc(C)c3c1O)C2=O | mushroom tyrosinase | enzyme activity | – | 100 µg/mL, together with: L-DOPA | – | inhibition | 50.6 ± 0.25%
CC(=O)NCCN(CC(=O)NCCN(CC(=O)NCCN(CC(=O)NCCC(N)=O)C(=O)C[C@@H](N)Cc1ccccc1)C(=O)C[C@@H](N)CCCNC(=N)N)C(=O)C[C@@H](N)Cc1ccccc1 | HIV-1 TAR RNA | – | – | concentration not given | – | heat capacity change ΔCp | -1.66 ± 0.16 kJ/mol/K
CSCC[C@H](NC(=O)[C@H](CC(C)C)NC(=O)[C@H](CCC(N)=O)NC(=O)[C@H](Cc1c[nH]cn1)NC(=O)[C@H](CCC(=O)O)NC(=O)[C@H](CO)NC(=O)[C@@H](NC(=O)[C@@H](N)CO)C(C)C)C(=O)N[C@@H](Cc1c[nH]cn1)C(=O)N[C@@H](CC(N)=O)C(=O)N[C@@H](CC(C)C)C(=O)NCC(=O)N[C@@H](CCCCN)C(=O)N[C@@H](Cc1c[nH]cn1)C(=O)N[C@@H](CC(C)C)C(=O)N[C@@H](CC(N)=O)C(=O)N[C@@H](CO)C(=O)N[C@@H](CCSC)C(=O)N[C@@H](CCC(=O)O)C(=O)N[C@@H](CCCNC(=N)N)C(=O)N[C@H](C(=O)N[C@@H](CCC(=O)O)C(=O)N[C@@H](Cc1c[nH]c2ccccc12)C(=O)N[C@@H](CC(C)C)C(=O)N[C@@H](CCCNC(=N)N)C(=O)N[C@@H](CCCCN)C(=O)N[C@@H](CCCCN)C(=O)N[C@@H](CC(C)C)C(=O)N[C@@H](CCC(N)=O)C(=O)N[C@@H](CC(=O)O)C(=O)N[C@H](C(=O)N[C@@H](Cc1c[nH]cn1)C(=O)N[C@@H](CC(N)=O)C(=O)N[C@@H](Cc1ccccc1)C(=O)N[C@@H](CCCCNC(=O)c1ccc2c(c1)C1(OC2=O)c2ccc(N(C)C)cc2Oc2cc(N(C)C)ccc21)C(N)=O)C(C)C)C(C)C | Parathyroid hormone/parathyroid hormone-related peptide receptor (PTH1R, Homo sapiens, UniProt Q03431) | binding, NanoBRET | – | pH 5.5, acetate buffer | – | kon | 440000 ± 200000 M⁻¹ s⁻¹
CC(=O)N[C@@H](Cc1ccc(O)cc1)C(=O)N[C@@H](CCCNC(=N)NC(=O)NCCCCN)C(=O)N[C@@H](CC(C)C)C(=O)N[C@@H](CCCNC(=N)N)C(=O)N[C@@H](Cc1ccc(O)cc1)C(N)=O | Neuropeptide Y receptor type 4 (NPY4R, Homo sapiens, UniProt P50391) | calcium mobilization, agonist, aequorin | CHO-hY4-Gqi5-mtAEQ | concentration not given, unit not given | reference: 1 µM human pancreatic polypeptide | intrinsic activity | 0.61
CN1C(=O)[C@@H](Cc2ccc(O)c(I)c2)NC(=O)CNC(=O)[C@H](Cc2ccc3ccccc3c2)NC(=O)[C@H](CCCNC(=N)N)NC(=O)[C@H]1CCCNC(=O)c1ccc(CNC(=O)CN2CCN(CC(=O)O)CCN(CC(=O)O)CCN(CC(=O)O)CC2)cc1 [lutetium-177 labelled] | C-X-C chemokine receptor type 4 (CXCR4, Homo sapiens, UniProt P61073) | item: bound plus internalized tracer | Daudi | 1 nM, 60 min, 37 °C | reference: added dose | cellular uptake | 6.5 ± 1.1%
CCc1ccc2c(C)nc(NC3=NC(C)(C)C=C(C)N3)nc2c1 | CD38 | cyclase activity, fluorometric | – | 50 µM, together with: NGD+ substrate | reference: untreated | remaining activity | 48 ± 7.3%
COc1cc(C(=O)NC2CCC(N3CCN(CC4CCC5(CCCC5)C4)CC3)CC2)c(F)cc1Nc1ncc2c(n1)N(C1CCCC1(F)F)CC(F)(F)C(=O)N2C (stereo not shown) | Tyrosine-protein kinase ZAP-70 (ZAP70, Homo sapiens, UniProt P43403) | cell-free assay, TR-FRET | – | 10 µM | – | inhibition | 6.09%
CC(C)CCC[C@@H](C)[C@H]1CC[C@H]2[C@@H]3CC=C4C[C@@H](OS(=O)(=O)O)CC[C@]4(C)[C@H]3CC[C@]12C | Prothrombin (F2, Homo sapiens, UniProt P00734) | enzyme activity, inhibitor | – | together with: unfractionated heparin 50 µM | – | Hill slope | 2.6 ± 0.4
CC[C@H](C)[C@H](NC(=O)[C@@H](NC(=O)[C@H](Cc1c[nH]c2ccccc12)NC(=O)[C@H](CCC(=O)O)NC(=O)[C@H](CO)NC(=S)Nc1ccc2c(c1)C(=O)OC21c2ccc(O)cc2Oc2cc(O)ccc21)C(C)C)C(=O)N[C@H](C(=O)N[C@@H](C)C(=O)N1CCC[C@H]1C(=O)N[C@@H](Cc1ccccc1)C(=O)N[C@@H](CC(C)C)C(=O)N[C@H](C(=O)N[C@@H](CC(N)=O)C(=O)N[C@@H](CC(C)C)C(=O)O)[C@@H](C)O)C(C)C | Rgg transcriptional regulator (Streptococcus pneumoniae, UniProt A0A0E7KI02) | binding, fluorescence polarization | – | – | reference: wild-type peptide | fold decrease in affinity | ~4 fold
Cc1ccc(C(=O)Nc2ccc(CP(=O)(O)O)cc2CP(=O)(O)O)cc1NC(=O)c1cccc(NC(=O)Nc2cccc(C(=O)Nc3cc(C(=O)Nc4ccc(CP(=O)(O)O)cc4CP(=O)(O)O)ccc3C)c2)c1 | Coagulation factor XI (F11, Homo sapiens, UniProt P03951) | enzyme activity | – | 5 µM, pH 7.4, 37 °C, together with: S-2366 | – | Vmax | 106 ± 1.8 mAU/min
CCCCCCCC(=O)Nc1ccc(C)nc1OC | Liver carboxylesterase 1 (CES1, Homo sapiens, UniProt P23141) | substrate | – | 50 µM, pH 8, 37 °C, enzyme purity 25% | – | specific activity | 1300 pmol/min/µg
CNC(=O)c1ccc2c(c1)N(C)S(=O)(=O)c1cnc(SC)nc1-2 | Kinesin-like protein KIF15 (Homo sapiens, UniProt Q9NS87) | microtubule-dependent ATPase activity | – | 30 µM, together with: ATP 2 mM, microtubules | – | kcat | 8.1 ± 5 s^–1
CSCC[C@H](NC(=O)[C@H](CO)NC(=O)[C@@H](NC(=O)[C@H](CCC(N)=O)NC(C)=O)[C@@H](C)O)C(=O)N[C@H](C(=O)N[C@@H](CC(=O)O)C(=O)N[C@@H](Cc1ccccc1)C(=O)N[C@@H](Cc1ccc(O)cc1)C(=O)N[C@@H](Cc1c[nH]cn1)C(=O)N[C@@H](CO)C(N)=O)[C@@H](C)O | Proliferating cell nuclear antigen (PCNA, Homo sapiens, UniProt P12004) | binding, isothermal titration calorimetry | – | pH 7.4, 25 °C, 300 mM NaCl, together with: p21 peptide | – | entropic term −TΔS | 14.8 ± 3.35 kcal/mol
CC(C)C[C@H](NC(=O)[C@@H](NC(=O)[C@@H](NC(=O)CN)[C@@H](C)O)C(C)C)C(=O)N1CCC[C@H]1C(=O)N1CCC[C@H]1C(=O)N1CCC[C@H]1C(=O)N1CCC[C@H]1C(=O)N[C@@H](Cc1ccc(O)cc1)C(=O)N[C@@H](CCCNC(=N)N)C(=O)N[C@@H](Cc1c[nH]cn1)C(=O)N[C@@H](CCCNC(=N)N)C(=O)N[C@@H](CC(N)=O)C(=O)O | WW domain-containing oxidoreductase, WW1-WW2 tandem domains (WWOX, Homo sapiens, UniProt Q9NZC7) | binding, isothermal titration calorimetry | – | pH 7.8, 20 °C, tandem WW1-WW2 domain | – | TΔS | 6.1 ± 0.5 kcal/mol
CC(C)n1ccn2cc(C(=O)NCc3ccc(F)cc3F)c(=O)c(O)c2c1=O | gag-pol/sso7d, integrase (Human immunodeficiency virus type 1 group M subtype B, UniProt P12497+P39476) | integrase strand transfer | HIV-1 | – | reference: cabotegravir, higher = more potent | potency ratio | ~4 fold
COc1cccc(OC)c1C(=O)N1CCN(Cc2ccccn2)CC1 | Mitogen-activated protein kinase 14 (MAPK14, Homo sapiens, UniProt Q16539) | enzyme activity | – | – | – | ligand efficiency | 0.15
CC1=C(/C=C/C(C)=C/C=C/C(C)=C/C=O)C(C)(C)CCC1 | Cyclic nucleotide-gated channel alpha-1 (CNGA1, Bos taurus, UniProt Q00194) | ion current, patch clamp | – | 200 nM, switch +50 to -50 mV, together with: cGMP 2 mM | – | time constant of current decrease | 44 s
CNc1ccccc1C(=O)O[C@H]1C[C@H](n2cnc3c(N)ncnc32)O[C@@H]1COP(=O)(O)OP(=O)(O)O | Unconventional myosin-Va (Gallus gallus, UniProt Q02440, D297C/G292C/I296C/S293C/V295G) | stopped-flow FRET, linear fit intercept | – | 15 °C, together with: EDTA 4 mM | – | dissociation rate constant | 37.6 ± 1.06 s⁻¹
CC(=O)NCCN(CC(=O)NCCN(CC(=O)NCCN(CC(=O)NCCC(N)=O)C(=O)C[C@@H](N)CCCCN)C(=O)C[C@@H](N)Cc1ccccc1)C(=O)C[C@@H](N)Cc1ccccc1 | HIV-1 TAR RNA | – | – | extrapolated to 1 M KCl | – | non-electrostatic ΔG° | -7.72 ± 0.0956 kcal/mol
CC[C@@H](N[C@@H](C)CC(N)=O)c1ccc(Cl)c(Oc2ccccc2)c1F | Genome polyprotein, NS3 protease (Hepatitis C virus genotype 1b, UniProt P26663) | protease activity, inhibitor | – | – | – | IC50 | inactive
CCN(CCCC[C@H](NC(=O)[C@H](Cc1ccc(OC)c(OC)c1)NC(=O)[C@H](C)NC(=O)[C@H](CC1CCCCC1)NC(=O)c1ccc(Br)c(N)c1)C(=O)N[C@@H](CO)C(=O)OC)C(C)C | M-phase phosphoprotein 8, chromodomain (Homo sapiens, UniProt Q99549) | isothermal titration calorimetry | – | concentration not given | – | binding | no binding
CC(=O)N[C@@H](CC(=O)O)C(=O)N[C@H]1CSSC[C@@H](C(=O)N[C@H](C(=O)N[C@@H](Cc2ccccc2)C(=O)N[C@@H](Cc2c[nH]cn2)C(N)=O)[C@@H](C)O)NC(=O)[C@H](Cc2c[nH]c3ccccc23)NC(=O)[C@H](C(C)C)NC(=O)[C@H](CC(C)C)NC(=O)[C@H](CCC(=O)O)NC(=O)CNC(=O)[C@H](CC(C)C)NC(=O)[C@H](Cc2c[nH]cn2)NC(=O)[C@H](Cc2ccc(O)cc2)NC(=O)[C@H](C)NC1=O | Immunoglobulin heavy constant gamma 1 (IGHG1, Homo sapiens, UniProt P01857) | binding, ITC | – | 25 °C, together with: Herceptin | – | ΔH | -15 kcal/mol
NC(=O)C1CCNC(=O)C(CCCNC(=O)c2cnccn2)NC(=O)C(Cc2ccco2)NC(=O)C(CC2CC2)NC(=O)C=CC(=O)N1 (stereo not shown) | Serine/threonine-protein kinase pim-1 (PIM1, Homo sapiens, UniProt P11309) | DNA-templated library selection | – | one selection round | – | enrichment factor | 2.4
O=C1CC[C@H](N2Cc3cc(-c4cnn5ccc(NCCN6CCOCC6)nc45)ccc3C2=O)C(=O)N1 | Cereblon/Casein kinase I alpha (CSNK1A1/CRBN, Homo sapiens, UniProt P48729+Q96SW2) | protein level, degrader, luciferase | MOLT-4 | – | – | Dmax | 0%
CN1C(=O)/C(=C/c2cc(Cl)cc(Br)c2O)SC1=S | CD38 | hydrolase activity, fluorometric | – | 50 µM, together with: ε-NAD+ substrate | reference: untreated | remaining activity | 103 ± 2.2%
CC(=O)NCCN(CC(=O)NCCN(CC(=O)NCCN(CC(=O)NCCC(N)=O)C(=O)[C@@H](N)Cc1ccccc1)C(=O)[C@@H](N)CCCNC(=N)N)C(=O)[C@@H](N)Cc1ccccc1 | HIV-1 TAR RNA | – | – | 25 °C | – | binding free energy ΔG° | -8.37 ± 0.598 kcal/mol
Nc1ncnc2c1ncn2C1OC(COP(=O)(O)O)C(O)C1O (stereo not shown) | Fructose-1,6-bisphosphatase 1 (Mus musculus, UniProt Q9QXD6, G27P) | enzyme activity, inhibitor | liver homogenate | – | reference: G27P mutant over wild type | IC50 ratio | > 400 fold
C[C@H]1c2cccc(O)c2C(=O)C2=C(O)[C@]3(O)C(=O)C(C(N)=O)=C(O)[C@@H](N(C)C)[C@@H]3[C@@H](O)[C@@H]21 | T1, RNA aptamer A50U | fluorescence titration | – | pH 7.5, 25 °C, MgCl2 10 mM | – | Kd | 10.5 µM

Some of these lines once more:
SMILES | target | test | system | conditions | scale | endpoint | result
Nc1ncnc2c1ncn2C1OC(COP(=O)(O)O)C(O)C1O (stereo not shown) | Fructose-1,6-bisphosphatase 1 (Mus musculus, UniProt Q9QXD6, G27P) | enzyme activity, inhibitor | liver homogenate | – | reference: G27P mutant over wild type | IC50 ratio | > 400 fold
